Measurements gathered from unrelated publications.
Lines come from different studies, so protocols differ. Values joined by “and” are separate records of one study, mostly repeats; a detail may differ. Numbers after ± are the reported error.
MAP4K3: Mitogen-activated protein kinase kinase kinase kinase 3 (MAP4K3, Homo sapiens, UniProt Q8IVH8)
Cereblon/Ikaros: Cereblon/Ikaros (Homo sapiens, UniProt Q13422+Q96SW2)
Sequence of UniProt Q96SW2 (whole entry, looked up): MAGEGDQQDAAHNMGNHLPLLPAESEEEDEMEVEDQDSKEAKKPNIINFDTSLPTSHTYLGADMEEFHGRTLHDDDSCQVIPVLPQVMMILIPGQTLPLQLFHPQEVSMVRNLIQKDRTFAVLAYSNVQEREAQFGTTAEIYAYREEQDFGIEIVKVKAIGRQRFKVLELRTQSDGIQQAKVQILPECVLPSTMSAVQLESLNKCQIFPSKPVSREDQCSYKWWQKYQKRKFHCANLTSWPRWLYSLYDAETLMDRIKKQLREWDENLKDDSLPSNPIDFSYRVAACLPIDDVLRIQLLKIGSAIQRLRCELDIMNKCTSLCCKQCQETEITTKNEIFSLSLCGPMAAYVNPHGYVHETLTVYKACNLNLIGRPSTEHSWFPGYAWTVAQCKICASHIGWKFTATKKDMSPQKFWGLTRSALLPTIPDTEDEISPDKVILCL
Sequence of UniProt Q13422 (whole entry, looked up): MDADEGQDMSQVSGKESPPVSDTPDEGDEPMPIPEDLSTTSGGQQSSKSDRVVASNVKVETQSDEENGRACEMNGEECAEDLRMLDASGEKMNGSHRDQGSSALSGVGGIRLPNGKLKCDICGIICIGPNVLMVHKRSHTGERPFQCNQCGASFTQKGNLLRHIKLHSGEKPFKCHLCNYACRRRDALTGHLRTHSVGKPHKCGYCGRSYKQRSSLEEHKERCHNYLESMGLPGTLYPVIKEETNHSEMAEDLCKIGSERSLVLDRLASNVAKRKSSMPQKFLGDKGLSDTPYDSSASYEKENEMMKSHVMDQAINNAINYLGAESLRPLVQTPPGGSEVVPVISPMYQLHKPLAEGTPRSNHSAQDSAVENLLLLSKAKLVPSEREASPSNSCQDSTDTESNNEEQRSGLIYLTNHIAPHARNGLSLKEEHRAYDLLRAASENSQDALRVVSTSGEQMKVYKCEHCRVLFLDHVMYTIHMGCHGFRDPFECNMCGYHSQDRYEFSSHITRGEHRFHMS
TOP2A: DNA topoisomerase 2-alpha (TOP2A, Homo sapiens, UniProt P11388)
Sequence of UniProt P11388 (whole entry, looked up): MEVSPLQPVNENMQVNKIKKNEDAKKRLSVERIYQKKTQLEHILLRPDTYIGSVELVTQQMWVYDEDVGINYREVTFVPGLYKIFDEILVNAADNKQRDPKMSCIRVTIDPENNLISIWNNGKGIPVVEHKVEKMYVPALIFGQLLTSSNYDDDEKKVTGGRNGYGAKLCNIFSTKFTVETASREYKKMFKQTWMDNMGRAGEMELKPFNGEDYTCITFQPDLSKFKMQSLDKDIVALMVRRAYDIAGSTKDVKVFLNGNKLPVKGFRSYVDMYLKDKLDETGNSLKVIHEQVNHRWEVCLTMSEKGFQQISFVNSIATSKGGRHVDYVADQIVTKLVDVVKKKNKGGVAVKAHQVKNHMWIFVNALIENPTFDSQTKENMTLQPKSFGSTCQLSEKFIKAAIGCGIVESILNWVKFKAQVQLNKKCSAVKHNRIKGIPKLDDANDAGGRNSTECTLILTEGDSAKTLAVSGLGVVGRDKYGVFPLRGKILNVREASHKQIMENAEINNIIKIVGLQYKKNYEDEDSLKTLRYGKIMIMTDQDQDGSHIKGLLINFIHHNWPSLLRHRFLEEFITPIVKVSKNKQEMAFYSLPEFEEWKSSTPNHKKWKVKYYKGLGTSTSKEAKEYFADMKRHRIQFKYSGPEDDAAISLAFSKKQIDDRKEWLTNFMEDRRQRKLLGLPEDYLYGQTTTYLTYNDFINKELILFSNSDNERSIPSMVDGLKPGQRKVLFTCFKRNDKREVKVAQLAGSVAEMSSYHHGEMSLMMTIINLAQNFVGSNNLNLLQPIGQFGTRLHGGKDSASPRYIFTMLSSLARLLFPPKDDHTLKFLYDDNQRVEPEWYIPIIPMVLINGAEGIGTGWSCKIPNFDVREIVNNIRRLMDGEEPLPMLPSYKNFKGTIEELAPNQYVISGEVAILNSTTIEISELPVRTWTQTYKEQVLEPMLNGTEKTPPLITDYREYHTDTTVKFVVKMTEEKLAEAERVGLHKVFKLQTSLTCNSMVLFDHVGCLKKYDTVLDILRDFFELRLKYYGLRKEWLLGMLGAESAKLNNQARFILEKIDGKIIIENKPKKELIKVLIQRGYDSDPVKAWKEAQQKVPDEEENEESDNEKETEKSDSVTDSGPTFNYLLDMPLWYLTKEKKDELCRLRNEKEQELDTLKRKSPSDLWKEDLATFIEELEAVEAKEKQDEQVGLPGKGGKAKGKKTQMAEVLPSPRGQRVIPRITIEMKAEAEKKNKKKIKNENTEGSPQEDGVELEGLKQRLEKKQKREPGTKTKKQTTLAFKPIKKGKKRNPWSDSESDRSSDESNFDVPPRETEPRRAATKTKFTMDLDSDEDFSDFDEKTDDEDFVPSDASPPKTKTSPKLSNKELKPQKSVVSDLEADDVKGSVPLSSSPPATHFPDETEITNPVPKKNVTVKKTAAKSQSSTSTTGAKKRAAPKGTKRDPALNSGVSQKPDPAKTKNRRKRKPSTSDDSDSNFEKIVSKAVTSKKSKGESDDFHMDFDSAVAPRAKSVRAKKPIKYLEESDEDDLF
Pteridine reductase 1: Pteridine reductase 1 (Leishmania major, UniProt Q01782)
Sequence of UniProt Q01782 (whole entry, looked up): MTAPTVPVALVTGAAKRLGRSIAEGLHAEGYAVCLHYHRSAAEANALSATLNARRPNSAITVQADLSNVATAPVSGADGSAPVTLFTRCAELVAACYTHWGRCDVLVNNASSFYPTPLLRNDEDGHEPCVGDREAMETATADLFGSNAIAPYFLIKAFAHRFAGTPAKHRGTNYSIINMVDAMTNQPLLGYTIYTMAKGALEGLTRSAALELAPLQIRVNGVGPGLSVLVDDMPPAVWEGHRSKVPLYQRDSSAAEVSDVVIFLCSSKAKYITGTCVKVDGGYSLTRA
BEST2: Bestrophin-2a (BEST2, Homo sapiens, UniProt Q8NFU1)
Sequence of UniProt Q8NFU1 (whole entry, looked up): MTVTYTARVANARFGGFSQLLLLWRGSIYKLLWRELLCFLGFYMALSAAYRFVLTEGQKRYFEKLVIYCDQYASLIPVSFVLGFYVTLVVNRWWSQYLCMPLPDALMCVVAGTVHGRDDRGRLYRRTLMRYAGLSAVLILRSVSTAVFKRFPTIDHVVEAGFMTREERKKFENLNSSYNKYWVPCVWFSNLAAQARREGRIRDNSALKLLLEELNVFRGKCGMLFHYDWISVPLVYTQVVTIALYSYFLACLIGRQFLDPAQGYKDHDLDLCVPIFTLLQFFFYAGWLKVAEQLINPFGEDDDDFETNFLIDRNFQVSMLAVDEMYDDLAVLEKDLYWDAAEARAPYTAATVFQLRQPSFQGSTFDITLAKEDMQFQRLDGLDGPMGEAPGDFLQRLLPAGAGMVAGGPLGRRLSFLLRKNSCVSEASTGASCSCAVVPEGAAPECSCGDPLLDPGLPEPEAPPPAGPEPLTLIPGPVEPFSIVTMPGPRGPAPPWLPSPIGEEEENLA
Sequence of UniProt Q80VM9 (whole entry, looked up): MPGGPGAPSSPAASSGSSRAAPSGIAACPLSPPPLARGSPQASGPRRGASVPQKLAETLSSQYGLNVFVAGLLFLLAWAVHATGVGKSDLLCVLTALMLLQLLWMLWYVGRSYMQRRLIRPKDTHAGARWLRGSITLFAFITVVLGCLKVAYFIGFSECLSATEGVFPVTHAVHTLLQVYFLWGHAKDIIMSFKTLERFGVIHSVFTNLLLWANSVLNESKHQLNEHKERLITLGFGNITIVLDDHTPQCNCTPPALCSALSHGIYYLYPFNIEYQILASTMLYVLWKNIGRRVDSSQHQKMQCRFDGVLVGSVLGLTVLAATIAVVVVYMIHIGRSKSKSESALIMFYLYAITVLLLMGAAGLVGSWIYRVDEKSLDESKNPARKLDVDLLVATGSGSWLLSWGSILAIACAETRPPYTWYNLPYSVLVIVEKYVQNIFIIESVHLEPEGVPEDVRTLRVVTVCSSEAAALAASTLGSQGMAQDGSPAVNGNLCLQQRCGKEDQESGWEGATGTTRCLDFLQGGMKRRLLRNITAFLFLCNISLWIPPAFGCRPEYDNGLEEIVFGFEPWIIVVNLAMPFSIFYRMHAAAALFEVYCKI
Sequence of UniProt P07550 (whole entry, looked up): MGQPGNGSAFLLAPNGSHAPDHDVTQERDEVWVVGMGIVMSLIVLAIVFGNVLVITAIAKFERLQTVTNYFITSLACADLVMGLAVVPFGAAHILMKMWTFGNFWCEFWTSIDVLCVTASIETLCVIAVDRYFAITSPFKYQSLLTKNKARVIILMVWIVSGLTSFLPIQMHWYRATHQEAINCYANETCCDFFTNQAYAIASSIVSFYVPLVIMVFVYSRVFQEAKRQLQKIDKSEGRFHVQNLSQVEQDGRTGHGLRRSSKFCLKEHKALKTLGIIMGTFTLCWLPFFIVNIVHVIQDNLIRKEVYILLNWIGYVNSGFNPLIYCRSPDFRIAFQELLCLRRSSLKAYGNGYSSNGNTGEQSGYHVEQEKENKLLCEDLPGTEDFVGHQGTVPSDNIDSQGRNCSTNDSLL
Sequence of UniProt P51575 (whole entry, unmodified, looked up): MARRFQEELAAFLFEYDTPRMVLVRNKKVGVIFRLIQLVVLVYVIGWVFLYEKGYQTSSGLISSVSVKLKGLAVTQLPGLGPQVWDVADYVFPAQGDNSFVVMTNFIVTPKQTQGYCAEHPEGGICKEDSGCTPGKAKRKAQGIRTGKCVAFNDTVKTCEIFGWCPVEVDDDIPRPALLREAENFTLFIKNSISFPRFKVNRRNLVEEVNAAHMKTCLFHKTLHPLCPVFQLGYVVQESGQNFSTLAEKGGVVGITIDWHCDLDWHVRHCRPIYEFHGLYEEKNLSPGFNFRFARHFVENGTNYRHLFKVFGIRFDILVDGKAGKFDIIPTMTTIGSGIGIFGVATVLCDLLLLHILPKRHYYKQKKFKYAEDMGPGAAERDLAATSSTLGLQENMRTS
Sequence of UniProt P22748 (whole entry, unmodified, looked up): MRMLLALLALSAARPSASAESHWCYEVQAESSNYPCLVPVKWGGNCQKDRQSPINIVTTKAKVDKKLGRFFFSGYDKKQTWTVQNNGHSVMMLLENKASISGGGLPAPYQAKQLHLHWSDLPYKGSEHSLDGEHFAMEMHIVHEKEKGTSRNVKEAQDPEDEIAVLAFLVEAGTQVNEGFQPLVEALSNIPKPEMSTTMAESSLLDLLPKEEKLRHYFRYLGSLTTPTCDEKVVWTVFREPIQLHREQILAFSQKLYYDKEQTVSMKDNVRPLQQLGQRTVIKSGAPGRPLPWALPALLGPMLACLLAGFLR

SMILES	target	test	system	setting	scale	measurement	value
C[C@@H](c1ccc(-n2cnc3c(N)ncnc32)cc1)N1CCc2nn(C)c(Cc3ccccc3)c2C1=O	MAP4K3	KINOMEscan		0.1 µM	reference: DMSO control	remaining binding	100%
N#Cc1ccn2c(-c3ccncc3)c(-c3ccc(F)cc3)nc2c1	Mitogen-activated protein kinase MKC1 (MKC1, Candida albicans, UniProt P43068)	kinase binding, competitor, MIB/MS competition, refers to: MKC1	Candida albicans cell lysate	10 µM	reference: DMSO	log2 fold change	-0.246
C=CC(=O)N1CCC(C(=O)NCC(=O)N2CCN(c3nc(-c4cnc(N)nc4C(F)F)nc(N4CCOCC4)n3)CC2)CC1	MAP4K3	KINOMEscan		1 µM		remaining binding	86%
Fc1ccc2c(-c3nnc(Cc4ccccc4)s3)nn(Cc3ccc(Cl)cc3Cl)c2c1	Hexokinase-2 (HK2, Homo sapiens, UniProt P52789)	ADP-Glo		100 µM, 40 min	reference: DMSO	enzyme activity	increased
CC[C@@H](C)[C@@H](NC(=O)[C@@H](Cc1ccc(O)cc1)NC(=O)[C@H]1CCCN1C(=O)[C@@H](CCCNC(=N)N)NC(=O)[C@H](N)Cc1c[nH]cn1)C(=O)N[C@H](C)C(=O)N[C@H](Cc1c[nH]cn1)C(=O)N[C@H](CCCNC(=N)N)C(=O)N[C@@H](C(=O)N[C@H](Cc1ccc(O)cc1)C(=O)N[C@H](CO)C(=O)N[C@H](Cc1ccccc1)C(N)=O)C(C)C	Transferrin receptor protein 1 (Tfrc, Mus musculus, UniProt Q62351)	flow cytometry	DC2.4	48 h, pH 6, replicate 1, unit not given	reference: 0 h	surface TFRC expression	0.856
CCC(C)(NCCc1ccc(C(F)(F)F)cc1C(F)(F)F)c1cccc(NC2=CC(=O)N(C3CCC(=O)NC3=O)C2=O)c1 (stereo not shown)	Cereblon/Ikaros	protein degradation, degrader, HiBiT luminescence	Jurkat			Dmax	71%
Nc1nc2c(ncn2[C@@H]2O[C@H](COP(=O)(O)O)[C@@H](O)[C@H]2O)c(=O)[nH]1	GUK1 (Homo sapiens, UniProt Q16774, S13A)	binding, ITC				ΔG	-6.05 kcal/mol
O=c1nc(SCc2cc(F)cc(C(F)(F)F)c2)nc(SCc2cccc(C(F)(F)F)c2)[nH]1	TOP2A	decatenation		7.8 µM, replicate 1		decatenated DNA	97.9%
NCCS(=O)(=O)O	Sodium- and chloride-dependent taurine transporter (SLC6A6, Homo sapiens, UniProt P31641, Y138A)	binding, microscale thermophoresis		30.5 nM, room temperature, with: 50 nM labelled protein	higher = more binding	normalised MST signal	0.0276
c1coc(-c2n[nH]cc2-c2ccnc3ccccc23)c1	Actin-regulating kinase PRK1 (PRK1, Candida albicans, UniProt Q5A961)	kinase binding, MIB/MS competition	Candida albicans lysate	10 µM	reference: DMSO, negative = stronger binding	log2 fold change	-0.01
CC[C@H](NCc1ccc(-c2cccc(-c3cccc(/C=C/C(=O)c4ccc(OC)cc4)c3)c2C)nc1OC)C(N)=O	Programmed cell death 1 ligand 1 (CD274, Homo sapiens, UniProt Q9NZQ7)	degrader, western blot	HL-60	1 µM		degradation	< 5%
CC(C)c1ccc(CSc2nc(SCc3ccc4sccc4c3)[nH]c(=O)n2)cc1	TOP2A	decatenation		7.8 µM, replicate 2		decatenated DNA	100%
N[C@H](CC(=O)O)C(=O)O	aspartate racemase	HPLC	Salinispora arenicola	ATP, MgCl2, PLP, DTT, with: L-aspartate substrate		Km	1350 ± 10 µM
COc1ccc(Oc2ccc(CNCc3cnc4nc(N)nc(N)c4n3)cc2)cc1	Pteridine reductase 1			hDHFR weight 10	reference: LmPTR1, LmDHFR over hDHFR, 1.0 selective, 0.0 non-selective	partition index	0.98
Nc1ccc(C(=O)O)cc1	BEST2	whole-cell patch clamp	HEK293 transiently expressing channel	concentration not given, membrane potential 40 mV		current density	95.1 pA/pF and 37.7 pA/pF and 155 pA/pF and 120 pA/pF and 134 pA/pF and 74.9 pA/pF
O=C(O)CCCc1cc2cc(Cl)ccc2n1S(=O)(=O)c1ccc2ncsc2c1	Peroxisome proliferator-activated receptor delta (Ppard, Mus musculus, UniProt P35396)	reporter gene, agonist, luciferase reporter	mouse		reference: maximal control activation	Emax	53%
O=C(O)c1ccc(O)cc1	BEST2	whole-cell patch clamp	HEK293 transiently expressing channel	concentration not given, membrane potential 40 mV		current density	78.4 pA/pF and 62.2 pA/pF and 43.1 pA/pF and 49.8 pA/pF and 106 pA/pF and 89.2 pA/pF and 80.1 pA/pF
COc1cccc2c(-c3ccc(CN4CCOCC4)cc3)cc(C(=O)Nc3ccc(C(=O)O)cc3)nc12	Retinoic acid receptor alpha (RARA, Homo sapiens, UniProt P10276)	transactivation, antagonist, reporter gene		up to 3300 nM, with: 9-cis-retinoic acid at EC80, 180 nM		antagonist activity	inactive
Cc1nc(CSc2nc(SCc3ccc(C(C)C)cc3)nc(=O)[nH]2)cs1	TOP2A	DNA cleavage		125 µM, replicate 1		linear DNA	1.73%
C=C1CN(S(=O)(=O)c2ccc(C)cc2)CCCN(Cc2ccccc2)CCCN(S(=O)(=O)c2ccc(C)cc2)C1	Protein transport protein Sec61 subunit alpha isoform 1 (Homo sapiens, UniProt P61619)	Sec61-dependent translocation, inhibitor, refers to: CD4 signal peptide-FLuc reporter	HEK293	0.12 mM, 6 h		FLuc/RLuc ratio	1.04

SMILES	target	test	system	setting	scale	measurement	value
CCCCCCCS(=O)(=O)CCc1ccc2[nH]cnc2c1	ATP2A2 (Sus scrofa, UniProt P11607)		pig microsomes	concentration not given		ATPase activity	no effect
Nc1nc(-c2ccc(Cl)c(S(N)(=O)=O)c2)cs1	Carbonic anhydrase 4 (CA4, Homo sapiens, UniProt P22748)	ITC		concentration not given, 25 °C		intrinsic binding ΔG	-12.3 kcal/mol
O=C1CCC(N2C(=O)C=C(Nc3cccc(C4CCN(CCc5ccc(C(F)(F)F)c(Cl)c5)CC4)c3)C2=O)C(=O)N1 (stereo not shown)	Cereblon/Ikaros	protein degradation, degrader, HiBiT luminescence	Jurkat			Dmax	61%
CCN1CCC[C@H]1CNC(=O)c1c(O)c(Cl)cc(Cl)c1OC	Uracil nucleotide/cysteinyl leukotriene receptor (GPR17, Homo sapiens, UniProt Q13304)	β-arrestin recruitment, TANGO luminescence		concentration not given	reference: basal luminescence	log2 fold change	0.03
CC(C)c1noc2ncc(C(=O)c3ccccc3O)cc12	Otop1 (Mus musculus, UniProt Q80VM9)	alkali-evoked current, whole-cell patch-clamp		10 µM, pH 8.5, third pulse, after pH 8.5 alone		normalized current I3/I1	1.05 and 1.18 and 0.814
CCN1CCN(c2cc(N3CCN(CC)CC3)nc(NCCNc3ccnc4cc(Cl)ccc34)n2)CC1	Bile acid receptor (NR1H4, Homo sapiens, UniProt Q96RI1)	reporter gene, Gal4 hybrid reporter		20 µM	reference: vehicle	activation	1.22 fold
N[C@@H](CCC(=O)O)C(=O)O	Uncharacterized protein (Pelagibacter ubique, UniProt Q4FM26)	binding, competition isothermal titration calorimetry	Candidatus Pelagibacter ubique	with: phenylalanine 1 mM competitor		Ka	1.39e+09 M⁻¹ and 2.91e+09 M⁻¹
CC(Oc1ccccc1)C(=O)NCc1ccccn1 (stereo not shown)	DNA (cytosine-5)-methyltransferase 3A, PWWP domain (DNMT3A, Homo sapiens, UniProt Q9Y6K1)	binding, affinity selection mass spectrometry			reference: other proteins in batch	fold enrichment	0.679
Nc1ncnc2c1ncn2[C@@H]1O[C@H](COP(=O)(O)CP(=O)(O)OP(=O)(O)O)[C@@H](O)[C@H]1O	P2X purinoceptor 1 (P2RX1, Homo sapiens, UniProt P51575, D170A)	saturation binding		52 nM		specific binding	183 corrected cpm and 159 corrected cpm and 224 corrected cpm
N[C@@H](Cc1ccccc1)C(=O)O	Beta-2 adrenergic receptor (ADRB2, Homo sapiens, UniProt P07550)		HEK293 expressing β2AR	1 µM		cAMP level	18.3 pmol/mg protein and 19 pmol/mg protein and 17.7 pmol/mg protein and 18.9 pmol/mg protein and 19.8 pmol/mg protein
C[C@@H]1C[C@H](Nc2ccccc2)c2cc(F)ccc2N1C(=O)c1ccnnc1	Ecdysone receptor (Aedes albopictus, UniProt Q9U3Y4)	ligand binding, inhibitor	intact cells	with: [3H]ponasterone A	direction not given	pIC50 Z-score	-0.96
Cc1nc(CSc2nc(SCc3cc(F)cc(C(F)(F)F)c3)nc(=O)[nH]2)cs1	TOP2A	decatenation		15.6 µM, replicate 2		decatenated DNA	88.8%
CCS(=O)(=O)c1nc(C)cc(-c2ccccc2)n1	Importin subunit beta-1 (KPNB1, Homo sapiens, UniProt Q14974, C585A)	thermal shift		30 µM, 2 h		Tm1	43.8 °C
Clc1ccc(C2(c3ccc(-c4cn[nH]c4)cc3)CCNCC2)cc1	Serine/threonine-protein kinase N1 (PKN1, Homo sapiens, UniProt Q16512)	inhibitor				Hill slope	-1.09
O=c1nc(SCc2cc(F)cc(C(F)(F)F)c2)nc(SCc2ccc3ncsc3c2)[nH]1	TOP2A	decatenation		15.6 µM, replicate 2		decatenated DNA	87.4%
NC(N)=O	Urea transporter 1 (Homo sapiens, UniProt Q13336)	substrate, [14C] equilibrium exchange, fast flow	human cells	concentration not given, uninhibited		exchange half-time	~37 ms
OC[C@H]1OC(O)[C@H](O)[C@@H](O)[C@@H]1O (stereo partly shown)	Hexokinase-3 (HK3, Homo sapiens, UniProt P52790, E254A/R267A)	substrate inhibition		mutant E254A/R267A, partial substrate inhibition model, with: ATP 20 mM		V∞/Vmax ratio (b)	0.3 ± 0.04
O=c1nc(SCc2cc(F)cc(C(F)(F)F)c2)nc(SCc2ccc3sccc3c2)[nH]1	TOP2A	ATPase activity		3.9 µM, with: ATP 0.075 mM		ATP hydrolysis rate	0.664 µM/min and 0.653 µM/min
COc1cc(Oc2ccc(CNCc3cnc4nc(N)nc(N)c4n3)cc2)cc(OC)c1OC	Pteridine reductase 1			hDHFR weight 10	reference: LmPTR1, LmDHFR over hDHFR, 1.0 selective, 0.0 non-selective	partition index	0.98
Oc1c(Br)cc(Oc2ccc(Br)cc2Br)cc1Br	Sulfotransferase 1E1 (SULT1E1, Homo sapiens, UniProt P49888)	sulfonation, substrate				Vmax/Km	957 µL/min/mg

Excerpt of the above:
SMILES	target	test	system	setting	scale	measurement	value
CCC(C)(NCCc1ccc(C(F)(F)F)cc1C(F)(F)F)c1cccc(NC2=CC(=O)N(C3CCC(=O)NC3=O)C2=O)c1 (stereo not shown)	Cereblon/Ikaros	protein degradation, degrader, HiBiT luminescence	Jurkat			Dmax	71%
C[C@@H]1C[C@H](Nc2ccccc2)c2cc(F)ccc2N1C(=O)c1ccnnc1	Ecdysone receptor (Aedes albopictus, UniProt Q9U3Y4)	ligand binding, inhibitor	intact cells	with: [3H]ponasterone A	direction not given	pIC50 Z-score	-0.96
Nc1ccc(C(=O)O)cc1	BEST2	whole-cell patch clamp	HEK293 transiently expressing channel	concentration not given, membrane potential 40 mV		current density	95.1 pA/pF and 37.7 pA/pF and 155 pA/pF and 120 pA/pF and 134 pA/pF and 74.9 pA/pF
NCCS(=O)(=O)O	Sodium- and chloride-dependent taurine transporter (SLC6A6, Homo sapiens, UniProt P31641, Y138A)	binding, microscale thermophoresis		30.5 nM, room temperature, with: 50 nM labelled protein	higher = more binding	normalised MST signal	0.0276
CCN1CCC[C@H]1CNC(=O)c1c(O)c(Cl)cc(Cl)c1OC	Uracil nucleotide/cysteinyl leukotriene receptor (GPR17, Homo sapiens, UniProt Q13304)	β-arrestin recruitment, TANGO luminescence		concentration not given	reference: basal luminescence	log2 fold change	0.03
CC(C)c1ccc(CSc2nc(SCc3ccc4sccc4c3)[nH]c(=O)n2)cc1	TOP2A	decatenation		7.8 µM, replicate 2		decatenated DNA	100%
O=C(O)c1ccc(O)cc1	BEST2	whole-cell patch clamp	HEK293 transiently expressing channel	concentration not given, membrane potential 40 mV		current density	78.4 pA/pF and 62.2 pA/pF and 43.1 pA/pF and 49.8 pA/pF and 106 pA/pF and 89.2 pA/pF and 80.1 pA/pF
